Published values pooled from the literature.
Compare with care: the assays were run in different laboratories. ± marks the error that the study gave.

SMILES	target or system	assay	system	setting	how to read	endpoint	value
CN[C@@H]1COc2c(S(=O)(=O)NC(=O)Nc3c4c(cc5c3CCC5)CCC4)cnn2C1	–	–	healthy human volunteers, urine	oral, 600 mg, high-fat meal	–	amount excreted in urine 0-48 h	71.4 mg
COc1ccc2nc([S@@+]([O-])Cc3ncc(C)c(OC)c3C)[nH]c2c1	–	–	human male, dried plasma spots	dose not given, mean, together with: fluvoxamine and voriconazole	reference: inhibition over control	AUC fold change	7.4 fold
Cc1c(-c2ccc(N3CCc4cccc(C(=O)Nc5nc6ccccc6s5)c4C3)nc2C(=O)O)cnn1CC12CC3(C)CC(C)(C1)CC(OCCNCC[C@H](O)CO)(C3)C2	–	–	beagle dog, anaesthetised	intravenous infusion, 0.1 mg/kg/min, 30 min	reference: baseline	mean arterial pressure change	-2 mmHg
C[C@@H](c1ncncc1F)[C@](O)(Cn1cncn1)c1ccc(F)cc1F	–	measured: decreased appetite	human	oral, 400 mg	–	drug-related TEAE incidence	0%
Cc1ccc([C@@H]2O[C@H](CO)[C@@H](O)[C@H](O)[C@H]2O)cc1Cc1ccc(-c2ccc(F)cc2)s1	–	measured: inorganic phosphorus	Japanese type 2 diabetes patients	100 mg, day 6, 24 h urine collection	reference: baseline	urinary phosphate excretion change	18.6 mg
CN(C(=O)n1cnc(-c2cccnc2)c1)C1CCCCC1	–	–	Wistar rat, pons	oral, 10 mg/kg/day of BIA 10-2474, 4 h, repeated 5 days	–	concentration	33.6 ± 7.5 ng/g
C=CC(=O)N1CCC[C@@H](n2nc(-c3ccc(Oc4ccccc4)cc3)c3c(N)ncnc32)C1	–	–	Wistar rat, plasma	oral, dose not given, suspension	–	AUC(0-48 h)	3700 ± 76.3 ng·h/mL
COc1cc(Nc2ncc3c(n2)-c2ccc(Cl)cc2C(c2c(F)cccc2OC)=NC3)ccc1C(=O)O	–	measured: Dyspnea, grade 1	cancer patients, phase 1/2	oral, dose not given, together with: pembrolizumab	–	patients with adverse event	8%
COc1ccc2c(c1)CN(C(=O)CCN1CCC(Cc3ccccc3)CC1)CC[S@@+]2[O-]	–	–	beagle dog, female, plasma	intravenous, 8 mg/kg, day 1, 14-day toxicity study	–	unbound plasma concentration	6490 nM
NC(=O)c1cc(Oc2ccc(NC(=O)Nc3ccc(Cl)c(C(F)(F)F)c3)c(F)c2)cc[n+]1[O-]	–	short-term stability	mouse plasma	25 ng/mL, 8 h, room temperature	–	accuracy	106%
Cc1coc([C@H]2C[C@H]3[C@@H](CF)SC(N)=N[C@@]3(c3ccc(F)cc3F)CO2)n1	–	–	male 129/SVE mouse, brain	subcutaneous, 80 mg/kg, 9 h	–	brain concentration	15 nM
CC(C)C[C@H](NC(=O)C[C@H](O)[C@H](CC(C)C)NC(=O)[C@H](Cc1c[nH]cn1)NC(=O)CNC(=O)[C@@H](NC(=O)[C@H](C)NC(=O)[C@H](Cc1c[nH]c2ccccc12)NC(=O)[C@H](CCC(N)=O)NC(=O)[C@@H](Cc1ccccc1)NC(=O)COCCOCCNC(=O)CCC(C(=O)O)N1CCN(CC(=O)O)CCN(CC(=O)O)CC1)C(C)C)C(N)=O (stereo partly drawn) [lutetium-177 labelled]	–	–	female BALB/c nu/nu mice, tumor	intravenous, 50 pmol, 1 h	–	tissue uptake	6.9 ± 0.9 %ID/g
O=C(O)CCCOc1ccc([18F])cc1-c1cc(-c2ccccc2C(F)(F)F)n(-c2ccccc2)n1	–	gamma counting	male ddY mice, liver	intravenous, 2.1 MBq, 5 min	–	radioactivity uptake	2.57 ± 0.13 SUV
Cn1cc(-c2ccc(-c3cncc(Cl)c3N3CCC4(CCNC4=O)CC3)cc2)cn1	COLO 205	microarray, measured: ADM	–	concentration not given, 6 h	reference: untreated cells	fold change in expression	1.86
c1ccc2c(c1)-c1cccc3c1c-2cc1ccccc13	–	–	PDMS-water partitioning	PAH compilation	reference: maximum over minimum K	literature range factor	7
NC1(C(=O)N[C@@H](CCO)c2ccc(Cl)cc2)CCN(c2nc[nH]c3nccc2-3)CC1	–	–	metastatic CRPC patients	dose not given, grade 3 to 4, treatment-related, all doses, together with: enzalutamide 160 mg daily	–	incidence of Erythema	0%
COc1ccc([C@@H](O)c2cc(-c3ncnc4cc(N5CCOCC5)ccc34)c(F)cc2Cl)nn1	–	–	mouse, hippocampus	125 mg/kg, 4 h, together with: 5 Gy radiation	reference: radiation alone	γH2AX foci resolution	no effect
O=C(Nc1cnccc1Cl)N1CCN(Cc2ccc3c(c2)OC(F)(F)O3)CC1	–	multiple ascending dose	young men	10 mg, treatment-emergent adverse events	–	abdominal pain incidence	0%
CCOc1c([C@H](C)n2nc(C)c3c(N)ncnc32)cc(Cl)c(F)c1[C@@H]1CNC(=O)C1	–	–	patients with B-cell malignancies, plasma	oral, 30 mg, day 15, all cohorts, monotherapy	–	Cmax	2570 nM
Cn1cc(Nc2nccc(-c3ccc4c(c3)CN(C3COC3)CC[C@H]4NC(=O)c3cn(C(C)(C)C)nn3)n2)cn1	–	–	human, whole blood	300 mg twice daily, day 14	reference: pre-dose baseline	granulocyte count change	-4.01%
C=CCN1CC(=O)N2[C@@H](Cc3ccc(O)cc3F)C(=O)N(Cc3cccc(N4CC(N5CCN(CC)CC5)C4)n3)C[C@@H]2N1C(=O)NCc1ccccc1	–	–	advanced solid tumour patients	oral, 120 mg twice daily, grade ≥3, dose-escalation	–	treatment-related diarrhoea	0%
C=CCn1c(=O)c2cnc(Nc3ccc(N4CCN(C)CC4)cc3)nc2n1-c1cccc(C(C)(C)O)n1	–	–	human	oral, 125 mg twice daily, cycle 1 day 17, together with: durvalumab 1500 mg IV	geometric mean	Cmax	660 nM
C=CC(=O)NC1CCN(c2ncc3ncnc(Nc4ccc(Oc5ccc6c(c5)ncn6C)c(C)c4)c3n2)CC1	–	–	human, male	oral, 240 mg, treatment-emergent adverse event	–	participants with nausea	6.3%

SMILES	target or system	assay	system	setting	how to read	endpoint	value
O=C(Nc1nc2cccc(-c3ccc(CN4CCS(=O)(=O)CC4)cc3)n2n1)C1CC1	–	measured: somnolence	rheumatoid arthritis patients	oral, 75 mg once daily, 4 weeks, any relatedness	–	treatment-emergent adverse events	0%
O=C(O)CNC(=O)Cc1ccccc1	–	–	ventricular cardiomyocytes, C57BL/6 mouse	dose not given, 0.832 s	–	sarcomere length	1.64 µm
CC(C)(C)c1ccc(O)c(CN(Cc2cc(C(C)(C)C)ccc2O)C2CCC(NC(N)=O)CC2)c1 (stereo not drawn)	–	–	human liver microsomes	5 ng/mL, 3 months, 4 °C, refrigerator storage	–	recovery	102 ± 3.11%
CSc1cc(Oc2ccnc3[nH]c(=O)cnc23)ccc1NC(=O)Nc1cc(C(C)(C)C)nn1-c1ccccc1	patient-derived cell line	RPPA, measured: phosphorylated SAPK/JNK	human	1 µM, 4 h	reference: DMSO	phospho ratio	0.46
COc1cc(C(=O)NC2CCN(C)CC2)c(F)cc1Nc1ncc(C(F)(F)F)c(Oc2cccc3c2C(=O)N(C)C3)n1	–	–	human patients, plasma	oral, 25 mg once daily repeated, geometric mean	–	dose-normalised AUC(tau) at steady state	204 nmol·h/L per mg
CN1CC(=O)N2[C@H](c3ccc4c(c3)OCO4)c3[nH]c4ccccc4c3C[C@@H]2C1=O	–	–	human plasma	400 ng/mL, freeze-thaw at -20 °C	–	accuracy	98.5%
C=C(OP(=O)(O)O)C(=O)O	–	binding, MIDAS equilibrium dialysis LC-MS	A2AR-BRIL thermostabilized	concentration not given	reference: no-protein control	log2 fold change	-0.184
CC(C)[C@H](C(=O)Nc1ccc(C(=O)NO)cc1)c1ccccc1	–	–	whole blood	100 ng/mL, 5 h, 4 °C, stability on ice	–	accuracy	112%
Cc1ccc(O)c(-n2nc3ccccc3n2)c1	–	–	human aged 21-60 years	concentration not given, sunscreen, 95th percentile	–	daily dermal exposure dose	4080 ng/kg/day
CN(C(=O)n1cnc(-c2cccnc2)c1)[C@H]1CC[C@H](O)CC1	–	–	cynomolgus monkeys, plasma	oral, 1.0 mg/kg	–	Tmax	2 h
CNC(=O)c1ccc(-c2cnc3ncc(Cc4ccc5ncccc5c4)n3n2)cc1F	–	measured: Pyrexia	gastric cancer patients	oral, 600 mg twice daily, expansion cohort, grade 3-4	–	patients with adverse event	11%
NC(=O)C[C@H](N)C(=O)O	–	binding, MIDAS equilibrium dialysis LC-MS	A2AR-BRIL thermostabilized	concentration not given	reference: no-protein control	log2 fold change	-0.106
CCc1cc(C(=O)NC)c2nccc(N3CCc4c(cc(Cn5ccnc5)cc4-c4cn(C)nc4C(F)(F)F)C3=O)c2c1	–	–	Sprague Dawley rats	oral, 50 mg/kg once daily, 7 days	–	reticulocyte haemoglobin content	20.9 ± 1.03 pg
N#Cc1ccc2c(c1)[C@H]1CCCN(C(=O)c3ccc4[nH]cnc4c3)[C@H]1C2	–	–	human males	240 mg, end of trial	–	total testosterone level	12.3 nmol/L
O=C(O)CCC(=O)O.[2H]C([2H])([2H])Oc1cc(C)c2[nH]ccc2c1CN1CC[C@@H](C2CC2)C[C@H]1c1ccc(C(=O)O)cc1	–	–	human, plasma	125 mg twice daily, day 10, multiple ascending dose	–	Vss/F	131 L
CNCCOC12CC3(C)CC(C)(CC(Cn4ncc(-c5ccc(N6CCc7cccc(C(=O)Nc8nc9ccccc9s8)c7C6)nc5C(=O)O)c4C)(C3)C1)C2	–	–	anaesthetised male beagle dogs	intravenous bolus, 0.03 mg/kg, 45 min	–	plasma concentration	1.6 ± 0.1 ng/mL
O=C(O)c1cccc(C(=O)O)c1	–	–	betaine/propylene glycol DES-water	DES mass fraction 0.90	–	apparent dissolution enthalpy	5.95 kcal/mol
CCn1cc(C(=O)N2CCOCC2)c(=O)c2cc(NC3Cc4ccccc4C3)cnc21	–	–	human, fed	oral suspension, 2000 mg single dose, arithmetic mean	–	AUC(0-inf)	54600 ng·h/mL
COC(=O)C1=CO[C@@H](O[C@@H]2O[C@H](CO)[C@@H](O)[C@H](O)[C@H]2O)[C@@H]2C(CO)=CC[C@H]12	–	post-procedure stability	rat plasma	1000 ng/mL, 3 h, room temperature	–	accuracy	96.8%
CCC(=O)N(CCC(c1ccc2c(c1)OCO2)c1ccccc1OC)Cc1ccccc1 (stereo not drawn)	–	–	female athymic nude mouse, blood	i.p., 60 mg/kg twice daily, 14 days, group mean	–	Ca	8.93 mg/dL
CC(C)(Sc1ccncc1-c1ccc(C#N)c2ccccc12)C(=O)O	–	–	human, urine	oral, 15 mg, together with: febuxostat 0 mg	–	amount excreted in urine (0-24 h)	269 µg
OCC1=C[C@@H](O)[C@@H]2C=CO[C@@H](O[C@@H]3O[C@H](CO)[C@@H](O)[C@H](O)[C@H]3O)[C@H]12	–	post-procedure stability	rat plasma	200 ng/mL, 3 h, room temperature	–	accuracy	107%

Repeated from above:
SMILES	target or system	assay	system	setting	how to read	endpoint	value
Cn1cc(-c2ccc(-c3cncc(Cl)c3N3CCC4(CCNC4=O)CC3)cc2)cn1	COLO 205	microarray, measured: ADM	–	concentration not given, 6 h	reference: untreated cells	fold change in expression	1.86
COc1ccc([C@@H](O)c2cc(-c3ncnc4cc(N5CCOCC5)ccc34)c(F)cc2Cl)nn1	–	–	mouse, hippocampus	125 mg/kg, 4 h, together with: 5 Gy radiation	reference: radiation alone	γH2AX foci resolution	no effect
CC(C)C[C@H](NC(=O)C[C@H](O)[C@H](CC(C)C)NC(=O)[C@H](Cc1c[nH]cn1)NC(=O)CNC(=O)[C@@H](NC(=O)[C@H](C)NC(=O)[C@H](Cc1c[nH]c2ccccc12)NC(=O)[C@H](CCC(N)=O)NC(=O)[C@@H](Cc1ccccc1)NC(=O)COCCOCCNC(=O)CCC(C(=O)O)N1CCN(CC(=O)O)CCN(CC(=O)O)CC1)C(C)C)C(N)=O (stereo partly drawn) [lutetium-177 labelled]	–	–	female BALB/c nu/nu mice, tumor	intravenous, 50 pmol, 1 h	–	tissue uptake	6.9 ± 0.9 %ID/g
OCC1=C[C@@H](O)[C@@H]2C=CO[C@@H](O[C@@H]3O[C@H](CO)[C@@H](O)[C@H](O)[C@H]3O)[C@H]12	–	post-procedure stability	rat plasma	200 ng/mL, 3 h, room temperature	–	accuracy	107%
NC(=O)C[C@H](N)C(=O)O	–	binding, MIDAS equilibrium dialysis LC-MS	A2AR-BRIL thermostabilized	concentration not given	reference: no-protein control	log2 fold change	-0.106
O=C(O)CNC(=O)Cc1ccccc1	–	–	ventricular cardiomyocytes, C57BL/6 mouse	dose not given, 0.832 s	–	sarcomere length	1.64 µm
CCC(=O)N(CCC(c1ccc2c(c1)OCO2)c1ccccc1OC)Cc1ccccc1 (stereo not drawn)	–	–	female athymic nude mouse, blood	i.p., 60 mg/kg twice daily, 14 days, group mean	–	Ca	8.93 mg/dL
